Results from different studies.
Compare with care: the assays were run in different laboratories. Numbers after ± are the reported error.
Chain of UniProt Q14680 (whole entry, looked up): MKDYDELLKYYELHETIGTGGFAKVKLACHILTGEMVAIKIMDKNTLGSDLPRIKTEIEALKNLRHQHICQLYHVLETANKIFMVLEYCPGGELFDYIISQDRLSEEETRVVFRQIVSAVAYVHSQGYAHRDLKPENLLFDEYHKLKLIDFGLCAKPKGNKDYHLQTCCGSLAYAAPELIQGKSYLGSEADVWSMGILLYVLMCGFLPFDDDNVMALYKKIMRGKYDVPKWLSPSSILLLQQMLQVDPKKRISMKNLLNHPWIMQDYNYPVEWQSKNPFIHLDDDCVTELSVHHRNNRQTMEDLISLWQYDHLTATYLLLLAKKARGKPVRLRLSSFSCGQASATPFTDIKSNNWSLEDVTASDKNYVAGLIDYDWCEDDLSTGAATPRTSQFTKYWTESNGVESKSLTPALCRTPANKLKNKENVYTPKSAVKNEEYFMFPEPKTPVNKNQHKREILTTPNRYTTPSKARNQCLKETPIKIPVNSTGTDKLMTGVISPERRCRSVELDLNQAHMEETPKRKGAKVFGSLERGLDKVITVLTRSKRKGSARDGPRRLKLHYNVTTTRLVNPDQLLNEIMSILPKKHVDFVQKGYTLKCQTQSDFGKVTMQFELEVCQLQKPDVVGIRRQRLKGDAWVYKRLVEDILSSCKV
Chain of UniProt Q4J6C6 (whole entry, looked up): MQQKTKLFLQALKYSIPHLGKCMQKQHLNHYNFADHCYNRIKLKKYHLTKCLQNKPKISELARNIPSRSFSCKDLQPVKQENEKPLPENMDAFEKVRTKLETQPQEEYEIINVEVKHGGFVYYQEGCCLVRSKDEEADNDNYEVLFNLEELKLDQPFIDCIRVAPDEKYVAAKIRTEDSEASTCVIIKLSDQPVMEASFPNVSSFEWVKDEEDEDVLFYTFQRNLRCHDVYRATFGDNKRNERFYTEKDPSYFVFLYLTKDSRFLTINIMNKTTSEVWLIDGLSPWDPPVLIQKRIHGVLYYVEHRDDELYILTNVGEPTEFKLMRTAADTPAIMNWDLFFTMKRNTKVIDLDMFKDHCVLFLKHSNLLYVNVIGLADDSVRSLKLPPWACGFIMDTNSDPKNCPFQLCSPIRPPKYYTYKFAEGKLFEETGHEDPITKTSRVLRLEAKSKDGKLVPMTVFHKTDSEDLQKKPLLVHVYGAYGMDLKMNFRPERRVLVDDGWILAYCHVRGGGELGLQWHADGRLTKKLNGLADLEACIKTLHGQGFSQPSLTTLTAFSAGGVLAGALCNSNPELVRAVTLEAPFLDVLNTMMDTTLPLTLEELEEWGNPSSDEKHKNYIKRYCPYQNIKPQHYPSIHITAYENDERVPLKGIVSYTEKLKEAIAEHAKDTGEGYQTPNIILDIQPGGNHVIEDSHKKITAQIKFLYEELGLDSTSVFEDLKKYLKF
Chain of UniProt P25025 (whole entry, looked up): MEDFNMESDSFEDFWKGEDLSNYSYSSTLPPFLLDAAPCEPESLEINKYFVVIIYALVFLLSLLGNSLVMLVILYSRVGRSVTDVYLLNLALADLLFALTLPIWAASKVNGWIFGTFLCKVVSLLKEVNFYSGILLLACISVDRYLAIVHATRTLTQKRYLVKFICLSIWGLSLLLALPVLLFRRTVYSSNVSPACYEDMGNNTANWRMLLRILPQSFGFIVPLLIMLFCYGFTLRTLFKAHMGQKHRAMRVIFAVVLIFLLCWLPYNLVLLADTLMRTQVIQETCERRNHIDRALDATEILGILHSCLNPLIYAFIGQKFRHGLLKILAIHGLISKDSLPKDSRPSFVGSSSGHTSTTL
Chain of UniProt P05177 (whole entry, looked up): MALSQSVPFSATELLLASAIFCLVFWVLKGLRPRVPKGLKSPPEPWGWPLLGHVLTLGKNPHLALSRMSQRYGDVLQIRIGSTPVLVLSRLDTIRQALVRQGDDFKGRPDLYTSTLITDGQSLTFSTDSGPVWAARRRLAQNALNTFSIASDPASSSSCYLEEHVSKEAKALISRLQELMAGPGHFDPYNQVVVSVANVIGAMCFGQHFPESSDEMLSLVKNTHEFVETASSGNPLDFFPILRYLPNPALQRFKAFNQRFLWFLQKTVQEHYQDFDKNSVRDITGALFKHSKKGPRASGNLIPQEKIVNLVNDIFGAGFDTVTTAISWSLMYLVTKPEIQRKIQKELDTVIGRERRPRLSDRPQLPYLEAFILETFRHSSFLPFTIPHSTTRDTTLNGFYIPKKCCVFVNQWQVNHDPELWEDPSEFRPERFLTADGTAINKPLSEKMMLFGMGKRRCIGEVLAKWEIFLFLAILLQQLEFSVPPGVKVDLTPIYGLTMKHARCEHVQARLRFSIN
Chain of UniProt Q8N6U8 (whole entry, looked up): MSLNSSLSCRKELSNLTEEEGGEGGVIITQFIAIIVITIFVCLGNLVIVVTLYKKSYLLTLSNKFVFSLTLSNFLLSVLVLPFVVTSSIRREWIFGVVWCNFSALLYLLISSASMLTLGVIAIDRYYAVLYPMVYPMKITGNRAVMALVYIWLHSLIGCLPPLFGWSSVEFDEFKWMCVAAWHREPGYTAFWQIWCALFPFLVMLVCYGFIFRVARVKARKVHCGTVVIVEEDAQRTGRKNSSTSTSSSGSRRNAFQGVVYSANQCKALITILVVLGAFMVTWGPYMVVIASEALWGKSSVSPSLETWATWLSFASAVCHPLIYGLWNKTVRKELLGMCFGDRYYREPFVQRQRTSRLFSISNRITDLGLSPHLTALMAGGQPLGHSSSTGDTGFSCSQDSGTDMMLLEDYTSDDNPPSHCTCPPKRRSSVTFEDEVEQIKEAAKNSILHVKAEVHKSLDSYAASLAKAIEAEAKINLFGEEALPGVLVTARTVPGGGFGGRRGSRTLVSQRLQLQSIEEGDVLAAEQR
Chain of UniProt P49840 (whole entry, looked up): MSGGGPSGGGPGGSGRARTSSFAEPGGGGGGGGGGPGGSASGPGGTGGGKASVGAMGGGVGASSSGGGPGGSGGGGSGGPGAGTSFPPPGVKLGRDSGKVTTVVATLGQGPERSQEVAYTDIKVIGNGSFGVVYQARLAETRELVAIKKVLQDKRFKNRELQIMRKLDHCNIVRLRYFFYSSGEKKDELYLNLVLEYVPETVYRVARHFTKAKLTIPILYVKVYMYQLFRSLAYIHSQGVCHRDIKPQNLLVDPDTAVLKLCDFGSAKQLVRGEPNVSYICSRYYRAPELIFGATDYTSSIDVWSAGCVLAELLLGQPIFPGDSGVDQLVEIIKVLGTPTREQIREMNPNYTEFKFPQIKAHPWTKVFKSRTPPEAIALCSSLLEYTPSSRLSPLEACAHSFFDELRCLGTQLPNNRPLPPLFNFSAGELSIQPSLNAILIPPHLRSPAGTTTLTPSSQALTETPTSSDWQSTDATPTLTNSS
Chain of UniProt O75795 (whole entry, looked up): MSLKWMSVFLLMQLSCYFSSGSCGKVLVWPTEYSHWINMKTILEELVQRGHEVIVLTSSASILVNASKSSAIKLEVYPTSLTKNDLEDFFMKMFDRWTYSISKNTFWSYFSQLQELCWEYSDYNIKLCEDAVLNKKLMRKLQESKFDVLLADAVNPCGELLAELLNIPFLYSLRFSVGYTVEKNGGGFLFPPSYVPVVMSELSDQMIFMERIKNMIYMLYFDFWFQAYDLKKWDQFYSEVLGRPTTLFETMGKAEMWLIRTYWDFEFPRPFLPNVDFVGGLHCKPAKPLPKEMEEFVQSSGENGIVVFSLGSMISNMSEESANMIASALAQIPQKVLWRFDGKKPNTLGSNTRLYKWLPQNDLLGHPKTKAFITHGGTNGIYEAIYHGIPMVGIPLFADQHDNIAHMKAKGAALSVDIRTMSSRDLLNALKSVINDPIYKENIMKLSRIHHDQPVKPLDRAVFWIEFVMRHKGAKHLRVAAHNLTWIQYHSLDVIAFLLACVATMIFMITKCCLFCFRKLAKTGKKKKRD
Chain of UniProt P10635 (whole entry, looked up): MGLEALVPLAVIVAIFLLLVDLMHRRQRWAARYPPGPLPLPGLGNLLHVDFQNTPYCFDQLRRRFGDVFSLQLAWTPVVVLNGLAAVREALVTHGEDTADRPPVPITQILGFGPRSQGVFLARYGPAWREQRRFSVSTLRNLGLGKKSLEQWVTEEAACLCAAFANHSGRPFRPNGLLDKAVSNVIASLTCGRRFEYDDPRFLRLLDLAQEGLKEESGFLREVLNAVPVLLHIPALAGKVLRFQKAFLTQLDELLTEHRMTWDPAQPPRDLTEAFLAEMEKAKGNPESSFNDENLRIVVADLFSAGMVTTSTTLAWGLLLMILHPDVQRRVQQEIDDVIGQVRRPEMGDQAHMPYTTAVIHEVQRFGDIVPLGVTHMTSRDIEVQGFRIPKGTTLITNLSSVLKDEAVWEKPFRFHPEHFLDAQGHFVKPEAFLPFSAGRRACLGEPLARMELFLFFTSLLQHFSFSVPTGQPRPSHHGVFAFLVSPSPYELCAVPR

SMILES	tested on	test	test system	setting	scale	endpoint	result
COc1ccc(N2C(=O)N(c3c(C)cccc3Cl)Cc3cnc(Nc4ccc(C5CCN(C)CC5)cc4OC)nc32)nc1	GSK3A (Homo sapiens, UniProt P49840)	kinase activity, inhibitor		0.5 µM, kinase GSK-3-ALPHA		inhibition	8%
CN1CC[C@@H](c2c(O)cc(O)c3c(=O)cc(-c4ccc(C(F)(F)F)cc4Cl)oc23)[C@@H]1CO		refers to: Anemia	B-cell malignancies	oral, 100 mg, intermittent dosing		patients with adverse event	0%
O=C1c2c(O)c(=O)ccn2N([C@@H]2c3ccccc3SCc3c2ccc(F)c3F)[C@@H]2COCCN12			BALB/c mice, plasma	oral, 5 mg/kg baloxavir marboxil, 1 h		plasma concentration	44.6 ng/mL
O=C(c1ccc(Cl)cc1)N1CCN2C(=O)N(OC(=O)N3CCOc4ccccc43)C(=O)C2C1 (stereo not drawn)	PREPL (Homo sapiens, UniProt Q4J6C6)	enzyme activity, inhibitor, MS-based ABPP	SW-620 conditioned medium	10 µM, 1 h, 37 °C	relative to: compound over DMSO, lower = stronger inhibition	median ratio	1.43
CCCCCCCC(=O)N[C@@H](CCCNC(=N)N)C(=O)N[C@@H](CCCNC(=N)N)C(=O)N[C@@H](CCCNC(=N)N)C(=O)N[C@@H](CCCNC(=N)N)C(=O)N[C@H](C(=O)N[C@@H](CC(C)C)C(=O)N[C@H](C(=O)N[C@@H](CCCCN)C(=O)N[C@@H](CCCCN)C(=O)N[C@H](C(=O)N[C@@H](CC(C)C)C(=O)N[C@@H](CCCCN)C(=O)N[C@@H](CC(C)C)C(=O)N[C@@H](CCCCN)C(=O)N[C@@H](CO)C(=O)N[C@@H](CO)C(=O)N[C@@H](C)C(=O)N[C@@H](Cc1ccc(O)cc1)C(N)=O)C(C)C)[C@@H](C)CC)[C@@H](C)CC	human erythrocytes			400 µM, 1 h	relative to: Triton X-100	hemolysis	12%
OC(CCN1CC=C(c2ccc(F)cc2)CC1)c1ccc(F)c2ccccc12 (stereo not drawn)	Salmonella typhimurium	SOS/umu test	TA1535/pSK1002	0.002 mg/mL, 4 h, without S9, lower range		survival	102%
CNC(=O)Oc1cccc2c1OC(C)(C)C2O (stereo not drawn)	SH-SY5Y	cell viability		freely dissolved concentration		IC10	82.2 µM
CC[C@H](C)[C@H](NC(=O)[C@H](Cc1ccccc1)NC(=O)[C@H](CCC(=O)O)NC(=O)[C@H](CCCNC(=N)N)NC(=O)[C@H](C)NC(=O)[C@H](C)NC(=O)[C@H](CCC(N)=O)NC(=O)[C@H](CCC(=O)O)NC(=O)[C@H](CCC(=O)O)NC(=O)[C@H](CC(C)C)NC(=O)[C@H](Cc1ccc(O)cc1)NC(=O)[C@H](CO)NC(=O)[C@H](CO)NC(=O)[C@@H](NC(=O)[C@H](CC(=O)O)NC(=O)[C@H](CO)NC(=O)[C@@H](NC(=O)[C@H](Cc1ccccc1)NC(=O)[C@@H](NC(=O)CNC(=O)[C@H](CCC(=O)O)NC(=O)[C@H](C)NC(=O)CCc1c[nH]cn1)[C@@H](C)O)[C@@H](C)O)C(C)C)C(=O)N[C@@H](C)C(=O)N[C@@H](Cc1c[nH]c2ccccc12)C(=O)N[C@@H](CC(C)C)C(=O)N[C@H](C(=O)N[C@@H](CCCNC(=N)N)C(=O)NCC(=O)N[C@@H](CCCNC(=N)N)C(=O)N[C@@H](CCCCNC(=O)COCCOCCNC(=O)COCCOCCNC(=O)CC[C@H](NC(=O)CCCCCCCCCCCCCCCCC(=O)O)C(=O)O)C(=O)NCC(=O)NCC(=O)N[C@@H](CO)C(=O)N[C@@H](CCCCNc1c(NCCCCCN(O)C(=O)CCC(=O)NCCCCCN(O)C(=O)CCC(=O)NCCCCCN(O)C(C)=O)c(=O)c1=O)C(=O)O)C(C)C [zirconium-89 labelled]			rat, knee	intravenous, 3 nmol/kg, 72 h		tissue uptake	0.22 %ID/g
COc1cccc(-c2n[nH]c(SCc3ccccn3)n2)c1OC	Salmonella typhimurium	Ames test, plate incorporation	TA98	0.25 mg/plate, without S9		revertant colonies per plate	15
CCCCCC(=O)N[C@@H](CCCNC(=N)N)C(=O)N[C@@H](CCCNC(=N)N)C(=O)N[C@@H](CCCNC(=N)N)C(=O)N[C@@H](CCCNC(=N)N)C(=O)N[C@H](C(=O)N[C@@H](CC(C)C)C(=O)N[C@H](C(=O)N[C@@H](CCCNC(=N)N)C(=O)N[C@@H](CCCNC(=N)N)C(=O)N[C@H](C(=O)N[C@@H](CC(C)C)C(=O)N[C@@H](CCCNC(=N)N)C(=O)N[C@@H](CC(C)C)C(=O)N[C@@H](CCCNC(=N)N)C(=O)N[C@@H](CO)C(=O)N[C@@H](CO)C(=O)N[C@@H](C)C(=O)N[C@@H](Cc1ccc(O)cc1)C(N)=O)C(C)C)[C@@H](C)CC)[C@@H](C)CC	human erythrocytes			400 µM, 1 h	relative to: Triton X-100	hemolysis	20%
O=c1ccc2ccccc2o1	HepG2	cell count		concentration not given, 1 h, high-content imaging		response probability	0.05%
[Cl-].[Cl-].[Pt+2].[Ru+2].c1ccc(-c2nc3ccccc3nc2-c2ccccn2)nc1.c1cnc2c(c1)ccc1cccnc12.c1cnc2c(c1)ccc1cccnc12	Danio rerio		embryos	75 µM, 72 h		hatching rate	6.67 ± 3.9%
CNC(C)Cc1ccc2c(c1)OCO2 (stereo not drawn)	Cytochrome P450 2D6 (CYP2D6, Homo sapiens, UniProt P10635)	enzyme activity		300 µM, preincubation without NADPH, with: dextromethorphan O-demethylation		remaining activity	24.9%
COc1cc2c(Oc3ccc4[nH]c(C)cc4c3F)ccnc2cc1OCC1(N)CC1			paediatric recurrent refractory sarcoma	10 mg		grade 3 Hypothyroidism	0%
COc1cc(Nc2ncc(F)c(Nc3ccc4c(n3)NC(=O)C(C)(C)O4)n2)cc(OC)c1OC	CXCR2 (Homo sapiens, UniProt P25025)					IC50	> 10 µM
O=C(O)c1cn(Cc2ccc(F)cc2)c2ccccc12	UGT2B17 (Homo sapiens, UniProt O75795)	glucuronidation, recombinant enzyme			relative to: UGT1A10 over UGT2B17	CLint ratio	20 fold
CO[C@H]1C[C@@H]2CC[C@@H](C)[C@@](O)(O2)C(=O)C(=O)N2CCCC[C@H]2C(=O)O[C@H]([C@H](C)C[C@@H]2CC[C@@H](OC(=O)NCCOCCOCCOCCOCCOCCOCCOCCOCCC(=O)N3CCc4cc(Cn5nc(-c6ccc7oc(N)nc7c6)c6c(N)ncnc65)ccc4C3)[C@H](OC)C2)C[C@@H](O)[C@H](C)/C=C(\C)[C@@H](O)[C@@H](OC)C(=O)[C@H](C)C[C@H](C)/C=C/C=C/C=C/1C		phase 1 dose escalation, refers to: decreased appetite	advanced solid tumour patients	intravenous, 8 mg weekly, grade ≥3		TRAE incidence	0%
Oc1ccc2c3c1O[C@H]1[C@@H](O)CC[C@@]4(O)[C@@H](C2)N(CC2CCC2)CC[C@]314	G-protein coupled receptor 161 (GPR161, Homo sapiens, UniProt Q8N6U8)	β-arrestin recruitment, TANGO luminescence, refers to: GPR161		concentration not given	relative to: basal luminescence	log2 fold change	0.144
CC(C)C[C@H](NC(=O)C[C@H](O)[C@H](CC(C)C)NC(=O)[C@H](Cc1c[nH]cn1)NC(=O)CNC(=O)[C@@H](NC(=O)[C@H](C)NC(=O)[C@H](Cc1c[nH]c2ccccc12)NC(=O)[C@H](CCC(N)=O)NC(=O)[C@@H](Cc1ccccc1)NC(=O)CCNC(=O)CCSc1nnc(NCCC(=O)NCCC(=O)NCCCC[C@H](NC(=O)N[C@@H](CCC(=O)O)C(=O)O)C(=O)O)c2c1CCC1C(CC2)C1COC(=O)NCCNC(=O)CC[C@H](C(=O)O)N1CCN(CC(=O)O)CCN(CC(=O)O)CC1)C(C)C)C(N)=O (stereo partly drawn) [gallium-68 labelled]			athymic NMRI nude mouse, pancreas	intravenous, dose not given, 2 h, with: bombesin 480 nmol (GRPR blocking)		tissue uptake	0.31 %ID/g
Cc1cc(C(=O)NC(C)(C)COc2cccc3c2C(N)=NS(=O)(=O)N3)cc(C)n1	Salmonella typhimurium	Ames test, confirmatory	TA98	3333 µg/plate	relative to: solvent control	revertant ratio	0.8
C[C@H]1CN(c2n[nH]c3nc(N[C@H]4CC[C@H](NS(=O)(=O)CCC(F)(F)F)CC4)ncc23)CCO1	MELK (Homo sapiens, UniProt Q14680)	inhibitor, Kinobeads competition profiling		0.16 µM	relative to: vehicle	relative abundance	1.03
CC[C@H](C)[C@H](NC(=O)[C@H](CCCNC(=N)N)NC(=O)[C@H](CCCNC(=N)N)NC(=O)[C@H](CCCNC(=N)N)NC(=O)[C@H](CCCNC(=N)N)NC(=O)[C@H](CCCNC(=N)N)NC(=O)[C@@H](N)CCCNC(=N)N)C(=O)N[C@@H](CO)C(=O)N[C@@H](Cc1ccccc1)C(=O)N[C@@H](CC(C)C)C(=O)NCC(=O)N[C@@H](CO)C(=O)N[C@@H](CCCCN)C(=O)N[C@@H](CCCCN)C(=O)N[C@@H](CCCCN)C(=O)N[C@@H](CCCCN)C(=O)N[C@@H](CCCCN)C(=O)N[C@@H](CC(C)C)C(=O)N[C@@H](CC(C)C)C(=O)N[C@@H](CCCCN)C(=O)N[C@@H](CCCNC(=N)N)C(N)=O	human erythrocytes			400 µM, 1 h	relative to: Triton X-100	hemolysis	2%
C[C@@H](O)[C@@H](CO)NC(=O)[C@@H](CCCNC(=N)N)NC(=O)[C@@H]1CCCN1C(=O)[C@@H]1CSSC[C@H](NC(=O)[C@H](Cc2ccccc2)NC(=O)CN2CCN(CC(=O)O)CCN(CC(=O)O)CCN(CC(=O)O)CC2)C(=O)N[C@@H](Cc2ccc(O)cc2)C(=O)N[C@@H](Cc2ccccc2)C(=O)N[C@@H](CCC(N)=O)C(=O)N[C@@H](CC(N)=O)C(=O)N1 [gallium-68 labelled]			healthy Wistar rat, liver	intravenous, 8 MBq, 30 min, individual animals		tissue uptake	0.46 %ID/g
CC(C)CC(=O)OC[C@H]1O[C@@](C#N)(c2ccc3c(N)ncnn23)[C@H](O)[C@@H]1O	Cytochrome P450 1A2 (CYP1A2, Homo sapiens, UniProt P05177)	metabolic stability	recombinant enzyme	1 µM		intrinsic clearance	< 0.0559 µL/min/pmol
CC[C@H](C)[C@H](NC(=O)[C@H](CC(C)C)NC(=O)[C@@H](NC(=O)[C@@H](NC(=O)[C@@H](NC(=O)[C@H](CCCCN)NC(=O)[C@H](CCCCN)NC(=O)[C@H](CCCCN)NC(=O)[C@@H](N)CCCCN)C(C)C)[C@@H](C)CC)[C@@H](C)CC)C(=O)N[C@@H](CO)C(=O)N[C@@H](CC(C)C)C(=O)N[C@@H](CCCCN)C(=O)N[C@@H](CCCCN)C(=O)N[C@@H](CCCCN)C(=O)N[C@@H](CCCCN)C(=O)N[C@@H](Cc1ccccc1)C(=O)N[C@@H](CO)C(=O)N[C@@H](C)C(=O)N[C@@H](Cc1ccc(O)cc1)C(N)=O	human erythrocytes			400 µM, 1 h	relative to: Triton X-100	hemolysis	17%
CC[C@H](C)[C@H](NC(=O)[C@@H](N)CC(N)=O)C(=O)N1CCC[C@H]1C(=O)N1CCC[C@H]1C(=O)N[C@@H](CC(C)C)C(=O)N[C@H](C(=O)N[C@@H](CCC(N)=O)C(=O)N[C@H](C(=O)N1CCC[C@H]1C(=O)N[C@H](C(=O)N[C@H](C(=O)N[C@H](C(=O)N1CCC[C@H]1C(=O)N1CCC[C@H]1C(=O)N[C@@H](Cc1ccccc1)C(=O)N[C@@H](CC(C)C)C(=O)N[C@@H](CCC(N)=O)C(=O)N1CCC[C@H]1C(=O)N[C@@H](CCC(=O)O)C(=O)O)C(C)C)C(C)C)C(C)C)[C@@H](C)O)[C@@H](C)O	Caco-2 monolayers			10 µM, 60 min, with: wortmannin 0.5 mM preincubated 30 min	relative to: untreated	transport	no effect
CC[C@H](C)[C@@H]1NC(=O)[C@@H]2CCCN2C(=O)[C@H](CC(C)C)NC(=O)[C@H](CC(C)C)NC(=O)CNC(=O)[C@@H](NC(=O)[C@@H](NC(=O)[C@H](CC(=O)O)NC(=O)CNC(=O)[C@@H](NC(=O)[C@H](C)NC(=O)CNC(=O)[C@H](CCCCN)NC(=O)[C@H](CC(C)C)NC(=O)[C@H](CC(C)C)NC(=O)[C@H](CCCCN)NC(=O)CNC(=O)[C@@H](NC(=O)[C@@H](N)CC(C)C)C(C)C)C(C)C)C(C)C)CSSC[C@@H](C(=O)O)NC1=O		RNA-seq, refers to: Prss16	mouse, traumatic brain injury model, frontal cortex and hippocampus	dose not given	relative to: TBI alone	log2 fold change	-2.2
